Results pooled from the literature.
Numbered parts are unrelated; each lists some results of a single study.

Block 1 — method: RNA Bind-n-Seq; molecule type: RNA; medium: in vitro; tested at: 365 nM; reference: no-protein control; direction: higher = stronger binding
Target: RNA binding protein fox-1 homolog 2, RRM domain, GST-SBP tag (RBFOX2, Homo sapiens, UniProt O43251-10, residues 100-194)
Setting: natural RNA segment, single round, ends assumed
Constant ends, left off below: GGGAGUUCUACAGUCCGACGAUC … UGGAAUUCUCGGGUGCCAA
Residues (chain): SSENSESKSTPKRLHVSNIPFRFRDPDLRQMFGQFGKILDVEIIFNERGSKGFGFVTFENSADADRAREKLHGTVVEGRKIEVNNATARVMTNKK
`GGUCAAUAAGUUGUAAUCUUGAUAGUAAAGGUGGAAAACUUAUUAUAAAUGGAAAGAAAGUUUUAUUUCCUUUUUUGUUUGAUGGGCAGUAUGCCAUAUUAUACCCAAAG` — result for “RBNS enrichment (R)”: 0.5.
`GAAUAUCAAGUAUAAUGAUGUAGUAAAAAGAUUUCUCCAGAAAACACUUUGAGAUACUUAAAGAAAUUCAGAGCAUAUCGAAUGUUAUGAAUGAAGAGUAAAAUAAUUAC`: “RBNS enrichment (R)” 0.635.
`UUGCUGUUGAUGCCAUAUGUUUAGACUGCUGUUCUGACCCUAUUUAUCUUUCUCUCUGCCAUUUGGAACUUUAUUCCCUAACCCAGGUUUUGCUGCUGUGAAACAGCGUU`: “RBNS enrichment (R)” 0.975.
`CUCAGGCAAAGAGGGGAAAAUCCAUAAAAGAGGUGGAAAAUGCAUUUAGUUUUUUCAUUUUGUUCUACUUUAUUAAAAAGGUUGGGUGUUCUAGUUCUUGGUUUCUCAUA` — result for “RBNS enrichment (R)”: 0.948.
`CUAAUUUUUUGUAUUUUUAGUAGAGACGGUUUCAUCGUGUUAGCCAGGAUGGUCUCGAUCUCCUGACCUUGUGAUCCACCCGCCUCAGCCUCCCAAAGUGCUGAGAUUAC` — result for “RBNS enrichment (R)”: 0.394.
`UACCUGGUGAGUAACUUAGAAAAGUGGUGUAAACUUGUACAUGGAAUUUUUUGAAUAUGCCUUAAUUUAGAAACUGAAAAAUAUCUGGUUAUAUCAUUCUGGGUGUGUUC`: “RBNS enrichment (R)” 1.9.
Under “RBNS enrichment (R)”, `UGAGUUAAGAAGUCUUAAGUAUGCAGGCGUUUACGUGAUUGUGCCAUUCCAAAGUGCAUCAGAACUGUCAUUCCCUUCUAAUAUCUUCUCAGGAGUAAUACAAAUCAGGU` is recorded as 0.532.
For `UAUUAUAAACCCACCUCCUAAUAGGAAGCCAAGUACUAUUUGAUACAGUGGUAAAAACCAAACUACCUUGAAUUUUUUUAAGGCAACUUAUGAAUAAUGCUCAUUUUCAC`, “RBNS enrichment (R)” read 0.357.

Block 2 — method: protein-binding microarray; molecule type: double-stranded DNA, one strand shown; medium: in vitro; tested at: 250 nM; setting: 60-bp whole probe; with: salmon DNA 0.4 mg/ml; reference: random background probes; direction: higher = stronger binding; constant ends, left off below: GCCTAGCAC … GTCTTGATTCGCTTGACGCTGCTG
Target: Interferon regulatory factor 5, full length, phosphomimetic (IRF5, Homo sapiens, UniProt Q13568-2, residues 1-514, K96S/S451D/S453D/S456D/S462D)
With `GAATCTCTCATGTTACATTTGTGCTAG` the log fluorescence was 0.753 z-score.
The log fluorescence of `TGAGGTATCGGACTGGGTTAGTGCTAG` is reported as 0.575 z-score.
`TCACTCCTCCTTCTCTAACTGTGCTAG` gave a log fluorescence of 0.157 z-score.
`CTAGATTTCGGGACTGGATTAGTGCTA` has a log fluorescence of 2.1 z-score.
For `TTAGGTCTCCTAATGCTTTAGTGCTAG`, the log fluorescence was 0.00449 z-score.
For `ATAGGTTTCCTACTGCTTTAGTGCTAG`, the log fluorescence was 0.474 z-score.
With `GATCCTTCCCCTCTAGGTTCGTGCTAG` the log fluorescence was -0.0535 z-score.
With `TTAGATATCAGTATCGATTAGTGCTAG` the log fluorescence was 8.11 z-score.
With `GAAGATTTCAGACTGGAGACGTGCTAG` the log fluorescence was 0.0717 z-score.
With `TTGTCTCTGTCCCTGTTTCTGTGCTAG` the log fluorescence was 1.34 z-score.
`CCACTTTCAGTTCTCCCTTTGTGCTAG` has a log fluorescence of 7.96 z-score.
`TTAGATTTGAGTATCGATTAGTGCTAG` gave a log fluorescence of 6.63 z-score.
For `GACGGTTTCGGGATTCGGGACGTGCTA`, the log fluorescence was 5.78 z-score.
For `TTAGGTATGCTTCTCCTTTAGTGCTAG`, the log fluorescence was -0.224 z-score.
With `TCAATCCCCAGTCTCATACTGTGCTAG` the log fluorescence was 0.0974 z-score.
`GACGGTTTCGACTTTCAGGACGTGCTA` has a log fluorescence of 6.71 z-score.
For `GACGGAATGGACTATCGGGACGTGCTA`, the log fluorescence was 0.968 z-score.
`TGGCCTCTAGGTTTTCTGAAGTGCTAG` gave a log fluorescence of -0.178 z-score.

Block 3 — method: protein binding microarray; molecule type: double-stranded DNA, one strand shown; medium: in vitro; tested at: not given; reference: not given; direction: higher = stronger binding
Target: Histone acetyltransferase KAT6A, winged helix 1, GST fusion (KAT6A, Homo sapiens, UniProt Q92794, residues 1-85)
Setting: 8-mer, flanks averaged, mean of 2 arrays, mostly near background
Construct (chain): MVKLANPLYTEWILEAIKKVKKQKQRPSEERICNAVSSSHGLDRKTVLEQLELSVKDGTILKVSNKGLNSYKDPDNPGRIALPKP
With `CCTCGCAC` the E-score was 0.127.
For `AGCGCGCG`, the E-score was 0.468.
`CTACGTCA` gave an E-score of -0.128.
`TAAACCGA` gave an E-score of -0.0805.
With `GACTATGA` the E-score was -0.15.
For `CGGTAGAC`, the E-score was 0.217.
The E-score of `AGCAACAA` is reported as -0.23.
For `CGCGCGTC`, the E-score was 0.445.
`CGGCGGAA` gave an E-score of 0.439.
`CTCTGTTA` has an E-score of -0.0629.
`ATGTCTTA` gave an E-score of -0.133.
For `CTATGGAG`, the E-score was -0.108.
`GTTCCCAA` gave an E-score of -0.0887.
For `GGTCTAGA`, the E-score was -0.147.
For `CCGAAGTC`, the E-score was 0.101.
`GAGCGAAA` gave an E-score of -0.0552.
For `ATGCTATA`, the E-score was -0.122.
With `CGCCCCGA` the E-score was 0.322.
`CATCGTAG` gave an E-score of 0.0289.
The E-score of `GCTGTAAA` is reported as -0.24.
`AATTTGGC` gave an E-score of -0.163.
With `TAGAATAA` the E-score was -0.242.
With `AAATACCG` the E-score was 0.0947.
`CCATCCAG` has an E-score of -0.18.
With `CGACTGAG` the E-score was -0.147.

Block 4 — method: RNA Bind-n-Seq; molecule type: RNA; medium: in vitro; tested at: 200 nM; setting: whole 134-nt RNA, ends assumed; with: 150 mM KCl; reference: input library; direction: higher = stronger binding
Target: Ras GTPase-activating protein-binding protein 1, full length (G3BP1, Homo sapiens, UniProt Q13283)
Sequence of UniProt Q13283 (whole entry, looked up): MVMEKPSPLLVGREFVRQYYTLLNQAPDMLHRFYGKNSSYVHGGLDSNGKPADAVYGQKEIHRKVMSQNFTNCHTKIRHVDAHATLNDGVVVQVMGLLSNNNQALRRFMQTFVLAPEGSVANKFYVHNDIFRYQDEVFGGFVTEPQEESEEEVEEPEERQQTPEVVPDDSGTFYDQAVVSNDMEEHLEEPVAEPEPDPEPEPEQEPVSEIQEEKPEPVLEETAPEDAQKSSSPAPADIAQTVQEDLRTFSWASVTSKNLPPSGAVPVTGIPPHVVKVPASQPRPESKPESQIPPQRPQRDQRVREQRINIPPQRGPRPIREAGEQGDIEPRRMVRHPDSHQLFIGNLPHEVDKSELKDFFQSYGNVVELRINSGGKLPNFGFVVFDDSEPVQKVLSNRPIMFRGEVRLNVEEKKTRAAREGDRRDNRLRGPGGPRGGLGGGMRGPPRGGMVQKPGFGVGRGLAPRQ
Constant ends, left off below: GGGAGUUCUACAGUCCGACGAUC … UGGAAUUCUCGGGUGUCAAGG
With `UGGGUGGUGGAUUUUGUUUAUUUUUUUAGCUCAUUUCCAGGGGUGGGAAUUUUUUUUUAAUAUGUGUCAUGAAUAAAGUUGUUUUUGAAA` the log2 enrichment was 0.407.
`GUCCUGUGCUACACAUCGUAUGUACCGAAUCGGGUUUUUUGGUUUUUUGGGUUUUUUGGAAAGUAUUAUGUUACGCCGUUCGGAUCUGCA` gave a log2 enrichment of -1.03.
`GUCCUGUGCUACACAUCGUAUGUACCGAAUCGGGGUUUUUGGGGUUUUUGGGGUGGGGAAAGUAUUAUGUUACGCCGUUCGGAUCUGCAC` has a log2 enrichment of 0.432.
The log2 enrichment of `GAAAGAAGUAAAAACAAAUGGAAAUGCUUCGGAUAGUGGCAGGGGUGGGGGUUGCUAAGGAAAGGGUGGGAUGGGAGUGGGUAAAGAGUU` is reported as 0.625.
The log2 enrichment of `UGGGAGGUGGAUUUUGUUUAUUUUUUUAGCUCAUUUCCAGGGGUGGGAAUUUUGUUUUAAUAUGUGUCAUGAAUAAAGUUGUUUUUGAAA` is reported as 0.0479.
With `CAAGUCCUGUGCUACACAUCGUAUGUACCGAAUCGGAGGAAAAAGGUUUUUUUGGAAAGUAUUAUGUUACGCCGUUCGGAUCUGCACUUC` the log2 enrichment was -1.15.
`UACCAUGGUGGAAGUUCCCGUUCUCGUAGCAGUAUUUUCCAUGCAGGAAAAAGCCAAGGACUACAUGAAAACAACAUACCUGACAAUGAA` gave a log2 enrichment of 0.88.
For `CAAGUCCUGUGCUACACAUCGUAUGUACCGAAUCGGUUUUGGGUUUUGGUUUUGGGAAAGUAUUAUGUUACGCCGUUCGGAUCUGCACUU`, the log2 enrichment was -1.11.
The log2 enrichment of `UCCUGUGCUACACAUCGUAUGUACCGAAUCGGUUUUUUUGGAAAAAAAGGUUUUUUUGGAAAGUAUUAUGUUACGCCGUUCGGAUCUGCA` is reported as -1.02.

Some of these lines once more (block 3):
`ATGTCTTA` gave an E-score of -0.133.
For `CTATGGAG`, the E-score was -0.108.
`GTTCCCAA` gave an E-score of -0.0887.
For `GGTCTAGA`, the E-score was -0.147.
For `CCGAAGTC`, the E-score was 0.101.
`GAGCGAAA` gave an E-score of -0.0552.
